Measured values of several laboratories.
Compare with care: the assays were run in different laboratories. “And” joins repeats or separate records; there may be more than shown. ± gives the spread as reported. Ends that are not written are not given here.

Substance | tested on | test | system | conditions | how to read | quantity | value
QPLRKLCILHRNPGRCYQKIPAFYYNQKKKQCEGFTWSGCGGNSNRFKTIEECRRTCIRK (dendrotoxin I; ends and bridges not checked; cysteine pairing not given here; sequence looked up) | maxi-KCa channel, rat muscle | channel block, planar bilayer single-channel |  | 460 nM, together with: BPTI |  | inter-DTX periods ended by substate | 95.6%
YECDIPIGAGI |  | AIM | peptide, CD8+ T cells from PBMC, human donors | dose not given |  | response magnitude per positive donor | 101
CC[C@H](C)[C@H](NC(=O)[C@H](CC(C)C)NC(=O)[C@H](Cc1c[nH]c2ccccc12)NC(=O)[C@H](CCC(N)=O)NC(=O)[C@@H](NC(=O)[C@H](Cc1ccccc1)NC(=O)[C@H](C)NC(=O)[C@H](CCCCNC(=O)COCCOCCNC(=O)COCCOCCNC(=O)CC[C@H](NC(=O)CCCCCCCCCCCCCCCCCCC(=O)O)C(=O)O)NC(=O)[C@H](CCC(N)=O)NC(=O)[C@H](C)NC(=O)[C@@H](NC(=O)[C@H](CCCCN)NC(=O)[C@H](CC(=O)O)NC(=O)[C@H](CC(C)C)NC(=O)C(C)(C)NC(=O)[C@@H](NC(=O)[C@H](CO)NC(=O)[C@H](Cc1ccc(O)cc1)NC(=O)[C@H](CC(=O)O)NC(=O)[C@H](CO)NC(=O)[C@@H](NC(=O)[C@H](Cc1ccccc1)NC(=O)[C@@H](NC(=O)CNC(=O)[C@H](CCC(=O)O)NC(=O)C(C)(C)NC(=O)[C@@H](N)Cc1ccc(O)cc1)[C@@H](C)O)[C@@H](C)O)[C@@H](C)CC)[C@@H](C)CC)C(C)C)C(=O)N[C@@H](C)C(=O)NCC(=O)NCC(=O)N1CCC[C@H]1C(=O)N[C@@H](CO)C(=O)N[C@@H](CO)C(=O)NCC(=O)N[C@@H](C)C(=O)N1CCC[C@H]1C(=O)N1CCC[C@H]1C(=O)N1CCC[C@H]1C(=O)N[C@@H](CO)C(N)=O |  |  | healthy subjects | all MAD doses |  | subjects with application site reaction | 0%
NITRFQTL |  | AIM | peptide, CD8+ T cells from PBMC, human donors | HLA-B*08:01 restricted, unit not given | relative to: positive over tested donors | frequency of responding donors | 20
Cc1cc(/C=C/C#N)cc(C)c1Nc1nc(Nc2ccc(/C=C/C#N)cc2)ncc1N | HIV-1 | viral replication, single-round infection | RT mutant D67E |  |  | EC50 | 3.4 ± 0.5 nM
LPFAMGIIAM |  | AIM | peptide, CD8+ T cells from PBMC, human donors |  | relative to: positive over tested donors | frequency of responding donors | 50%
CCOCC(=O)N1CC(=O)N[C@@H](CC(C)C)c2nc(cs2)C(=O)N[C@@H](Cc2ccccc2)c2nc(C)nn2CC(=O)N[C@@H](C(C)C)C1 | Lassa mammarenavirus | viral replication | Huh-7 | 10 µM, 72 h |  | remaining activity | 107%
HTTDPSFLGRY |  | AIM | peptide, CD8+ T cells from PBMC, human donors | HLA-A*01:01 restricted, unit not given | relative to: positive over tested donors | frequency of responding donors | 100
LPYGK |  | DSC | peptide, 7/3 SOPC/cholesterol bilayers | 15 mol%, pH 7.40, SOPC chain melting transition |  | transition enthalpy | 1.3 kcal/mol
CCN(CC)CCNC(=O)c1cc(-c2ccc(Br)s2)nc2ccccc12 | SARS-CoV-2 | cytopathic effect, cell-based CPE | USA_WA1/2020 |  |  | AC50 | 7940 nM
CCCC(=O)OCSc1ccccc1C(=O)NCCC(N)=O | HIV-1 | viral replication | human PBMC, subtype F 93BR019, CXCR4-tropic clinical isolate |  |  | EC50 | 3520 ± 2620 nM
CC(Nc1nc(N2CCN(CCN)CC2)nc2ccccc12)c1ccccc1 (centres unmarked) | SARS-CoV-2 | cytopathic effect | USA_WA1/2020 | retest 8-point |  | maximum response | 78.3%
QPYRVVVLSF |  | AIM | peptide, CD8+ T cells from PBMC, human donors | HLA-B*07:02 restricted, unit not given | relative to: positive over tested donors | frequency of responding donors | 25
Cc1oc(-c2cccc(Cl)c2)nc1CN1CCCC(C(=O)NCCc2ccc(Cl)cc2)C1 (centres unmarked) | SARS-CoV-2 | cytopathic effect | USA_WA1/2020 | retest, 8-point, duplicates |  | maximum response | 34%
CCc1c(C(=O)C(N)=O)c2c(OCC(=O)O)cccc2n1Cc1ccccc1 | C2C12 |  |  | 1 µM, together with: WB venom | relative to: venom alone | viability difference | 9.21%
C=CC/C=C\C=C/[C@H]1O[C@H]2C[C@H]3O[C@H]4CC[C@H]5O[C@H]6C[C@@]7(C)O[C@@]8(C)[C@@H](O)C[C@H](CCCO)O[C@@H]8C[C@@H]7O[C@@H]6C[C@@H]5O[C@]4(C)C[C@]3(C)O[C@@H]2C=C[C@]1(C)O | Kv3.1-Kv2.1 chimera | potassium current, inhibitor, patch clamp | Ltk- cells |  |  | IC50 | 2.4 ± 0.2 nM
Cc1ccc(CN(C)C(=O)c2n[nH]c(N)c2-c2ccccc2)o1 | Lassa mammarenavirus | viral replication | Huh-7 | 10 µM, 72 h |  | remaining activity | 60%
MKDLSPRWYFYYLGT | human CD4 T cells | AIM | peptide |  |  | responding donors | 14%
CNC(=O)[C@@H](NC(=O)[C@H](CC(C)C)[C@H](O)C(=O)NO)C(C)(C)C | Daboia russelii venom proteases (SVMP) | protease activity, inhibitor | RJ population | 0.1 µM, together with: azocasein substrate | relative to: venom alone | remaining activity | 99.7% and 100%
O=C(CCC1CCN(C(=O)CC2=CCCCC2)CC1)N1CCC(Cc2ccccc2)CC1 | Lassa mammarenavirus | viral replication | Huh-7 | 10 µM, 72 h |  | remaining activity | 42%
Cn1cnc(Cn2c(=O)[nH]/c(=N\c3cc4cn(C)nc4cc3Cl)n(Cc3cc(F)c(F)cc3F)c2=O)n1 |  |  | human, normal renal function | oral, 375 mg, treatment-related dry mouth, Mild severity |  | patients with adverse event | 0%

Substance | tested on | test | system | conditions | how to read | quantity | value
COP(=S)(OC)Oc1ccc([N+](=O)[O-])c(C)c1 | rat CYP1A | ethoxyresorufin O-deethylation | liver microsomes | concentration not given |  | Vmax | 0.32 ± 0.04 nmol/min/mg protein
COC(C)(C)C(=O)N1CC(=O)N[C@@H](CC(C)C)c2nc(cs2)C(=O)N[C@@H](Cc2ccccc2)c2nc(C)nn2CC(=O)N[C@@H](C(C)C)C1 | Lassa mammarenavirus | viral replication | Huh-7 | 10 µM, 72 h |  | remaining activity | 101%
Cc1cn([C@H]2C[C@H](N=[N+]=[N-])[C@@H](CO)O2)c(=O)[nH]c1=O | HIV-1 | viral replication | human PBMC, subtype A 92UG029, CXCR4-tropic clinical isolate |  |  | EC50 | 8.88 ± 0.81 nM
CCc1ccccc1N1CC(c2nc3ccccc3n2CCCCOc2ccccc2OC)CC1=O (centres unmarked) | SARS-CoV-2 | cytopathic effect, cell-based CPE | USA_WA1/2020 | round 1, 5-point dilution |  | AC50 | 10000 nM
Cc1cc(/C=C/C#N)cc(C)c1Nc1nc(Nc2ccc3cc(C#N)ccc3c2)ncc1N | HIV-1 | viral replication, single-round infection | RT mutant G190A |  |  | EC50 | ≤ 2.1 nM
RENNRVVISSDVLVN | human CD4 T cells | AIM | peptide |  |  | responding donors | 33%
CC(C)(Nc1nc(N2CCNCC2)nc2ccccc12)c1ccccc1 | SARS-CoV-2 | cytopathic effect, cell-based CPE | USA_WA1/2020 | round 2, 5-point dilution |  | AC50 | 11200 nM
N=C(N)c1ccc2cc(OC(=O)c3ccc(N=C(N)N)cc3)ccc2c1 | Daboia russelii venom proteases | proteolytic activity, inhibitor |  | 100 µM, together with: azocasein substrate |  | inhibition | 10 to 15%
O=C1Nc2ccc(Cl)cc2[C@@](C#CC2CC2)(C(F)(F)F)O1 | HIV-1 | viral replication, single-round infection | RT mutant P236L |  |  | EC50 | 0.2 ± 0.04 nM
O=C1CC2(CCN(c3ccnc4ccccc34)CC2)CN1Cc1ccccc1 | Lassa mammarenavirus | viral replication | Huh-7 | 10 µM, 72 h |  | remaining activity | 50%
CC(Nc1nc(N2CCN(C)CC2)nc2ccccc12)c1ccccc1 (centres unmarked) | SARS-CoV-2 | cytopathic effect, cell-based CPE | USA_WA1/2020 | round 2, 5-point dilution |  | efficacy | 120%
Cc1cc(/C=C/C#N)cc(C)c1-n1cnc2cnc(Nc3ccc4cc(C#N)ccc4c3)nc21 | HIV-1 | viral replication, single-round infection | RT mutant D67E |  |  | EC50 | > 7 nM
Cc1c(Cl)cccc1-c1ccc(CNCCSc2nnnn2-c2ccccc2)o1 | SARS-CoV-2 | cytopathic effect, cell-based CPE | USA_WA1/2020 | round 1, 5-point dilution |  | AC50 | 14100 nM
CCCOC(C(=O)OC1CCN(C)CC1)(c1ccccc1)c1ccccc1.Cl | HeLa | Ebola VLP entry |  |  |  | maximal inhibition | 98%
AEVQIDRL |  | AIM | peptide, CD8+ T cells from PBMC, human donors |  | relative to: positive over tested donors | frequency of responding donors | 20%
Cc1cc(/C=C/C#N)cc(C)c1Nc1ccnc(Nc2ccc(C#N)cc2)n1 | HIV-1 | viral replication, single-round infection | RT mutant K101E/M184V |  |  | EC50 | 0.2 nM
O=C(NCCCN1CCCCCC1)c1ccc2c(c1)sc1nc(-c3ccccc3)cn12 | SARS-CoV-2 | cytopathic effect | USA_WA1/2020 | retest, 8-point, duplicates |  | efficacy | 63.8%
Nc1ncnc2c([C@@H]3N[C@H](CO)[C@@H](O)[C@H]3O)c[nH]c12 | Marburg virus | viral replication, antibody staining | HeLa, Musoke | 50 µM, 24 h |  | infected cells | 3.8%
NC(=O)C[C@H](NC(=O)Cc1ccc(O)cc1O)C(=O)NCCCCCNCCCNCCCNC(=O)[C@@H](N)CCCN=C(N)N | rat GluN1/GluN2A, GluN1 M2-loop Ala mutants | steady-state current, channel blocker, two-electrode voltage clamp | Xenopus oocytes | 100 nM, holding potential -60 mV |  | inhibition | < 20%
CN1C(=N)N[C@](C)(c2cc(NC(=O)c3ccc(F)cn3)ccc2F)CS1(=O)=O | Replicase polyprotein 1ab, main protease (rep, Severe acute respiratory syndrome coronavirus 2, UniProt P0DTD1) | reporter gene (mKate2), inhibitor |  | 20 µM |  | inhibition | -0.623%

For quick reference, copied from above:
Substance | tested on | test | system | conditions | how to read | quantity | value
CCCOC(C(=O)OC1CCN(C)CC1)(c1ccccc1)c1ccccc1.Cl | HeLa | Ebola VLP entry |  |  |  | maximal inhibition | 98%
Cc1ccc(CN(C)C(=O)c2n[nH]c(N)c2-c2ccccc2)o1 | Lassa mammarenavirus | viral replication | Huh-7 | 10 µM, 72 h |  | remaining activity | 60%
QPLRKLCILHRNPGRCYQKIPAFYYNQKKKQCEGFTWSGCGGNSNRFKTIEECRRTCIRK (dendrotoxin I; ends and bridges not checked; cysteine pairing not given here; sequence looked up) | maxi-KCa channel, rat muscle | channel block, planar bilayer single-channel |  | 460 nM, together with: BPTI |  | inter-DTX periods ended by substate | 95.6%
Cc1oc(-c2cccc(Cl)c2)nc1CN1CCCC(C(=O)NCCc2ccc(Cl)cc2)C1 (centres unmarked) | SARS-CoV-2 | cytopathic effect | USA_WA1/2020 | retest, 8-point, duplicates |  | maximum response | 34%
Cn1cnc(Cn2c(=O)[nH]/c(=N\c3cc4cn(C)nc4cc3Cl)n(Cc3cc(F)c(F)cc3F)c2=O)n1 |  |  | human, normal renal function | oral, 375 mg, treatment-related dry mouth, Mild severity |  | patients with adverse event | 0%
